{"data": "Assay results from different studies", "note": "Protocols differ between the studies behind these lines. “And” joins repeats or separate records; there may be more than shown. ± marks the error that the study gave."}
{"SMILES": "O=C1Nc2cc3[nH]nc(-c4ccncc4)c3cc2CN1Cc1ccccc1", "test": "CTCAE v4.03", "test system": "advanced solid tumour patients", "conditions": "intravenous, 9.6 mg/kg, schedules 1/2", "quantity": "patients with diarrhoea", "result": "22%"}
{"SMILES": "O=C(O)CCCOc1ccc(F)cc1-c1cc(-c2ccccc2C(F)(F)F)n(-c2ccccc2)n1", "test system": "male Crl:CD(SD) rats, heart", "conditions": "intravenous, 25 µg/kg, 14 d", "quantity": "organ weight", "result": "1.39 ± 0.09 g"}
{"SMILES": "COc1ccc(C[C@@H]2NC(=O)[C@H]([C@@H](C)O)NC(=O)[C@@H]3[C@@H]4CCN3C(=O)[C@@H]3Cc5cn(c6ccc(F)cc56)CCCCCCN(Cc5ccc(cc5)CCNC(=O)[C@]5(C)CCCN5C2=O)C(=O)CCC(=O)N[C@@H](C)C(=O)N[C@H](CNC(=O)CCCCC[N+](C)(C)C)C(=O)N[C@@H](Cc2cccc(c2)CNC(=O)CO4)C(=O)N3)cc1", "test": "refers to: post lumbar puncture syndrome", "test system": "human", "conditions": "Study-003 safety", "quantity": "adverse events", "result": "0%"}
{"SMILES": "C=CC(=O)Nc1cc(Nc2nccc(Nc3cc(Cl)c(F)cc3C(C)(C)O)n2)c(OC)cc1N1CC[C@@H](N(C)C)C1", "test system": "human", "conditions": "oral, dose not given", "quantity": "weight decreased TEAE", "result": "14.7%"}
{"SMILES": "CCN(CCO)CCCC(C)Nc1ccnc2cc(Cl)ccc12 (centres unmarked)", "test": "refers to: Headache grade 1", "test system": "newly diagnosed glioblastoma patients", "conditions": "oral, 200 mg/dose, with radiotherapy and temozolomide", "quantity": "patients with adverse event", "result": "66%"}
{"SMILES": "Cn1c(-c2ccc(C(N)=O)cc2F)nnc1C(C)(C)Oc1c(F)cc(Cl)cc1F", "test system": "human", "conditions": "oral, 60 mg, single ascending dose", "quantity": "subjects with any TEAE", "result": "33.3%"}
{"SMILES": "O=c1cc(-c2ccc(O)c(O)c2)oc2cc(O)cc(O)c12", "test system": "Sprague-Dawley rat, male, lean, faeces", "conditions": "oral, 100 mg/kg neohesperidin, 36-48 h", "quantity": "faecal excretion", "result": "2 ± 1.11 ng"}
{"SMILES": "c1ccc2cc3c(ccc4ccccc43)cc2c1", "test system": "pooled human liver microsomes", "conditions": "0.25 µM, pH 7.4", "quantity": "metabolism rate", "result": "16.3 pmol/min/mg"}
{"SMILES": "[O-][S+]1CCc2nc(N3CCC(c4ncc(Cl)cn4)CC3)nc(NC3(CO)CCC3)c21 (centres unmarked)", "test": "refers to: nervous system disorders", "test system": "healthy male humans", "conditions": "6 mg twice daily", "quantity": "adverse event incidence", "result": "25%"}
{"SMILES": "Oc1ccc(CSCc2ccc(O)cc2)cc1", "test system": "ICR mice male", "conditions": "oral, 3000 mg/kg, day 15, acute toxicity", "quantity": "body weight", "result": "37.2 ± 1.09 g"}
{"SMILES": "COc1ccnc(C(=O)N[C@H]2COC(=O)[C@H](Cc3ccccc3)[C@@H](OC(=O)C(C)C)[C@H](C)OC2=O)c1OCOC(=O)C(C)C", "test": "aerobic soil incubation", "test system": "soil", "conditions": "worst-case terminal value, for exposure modelling", "quantity": "DT50", "result": "3.5 days"}
{"SMILES": "CC(C)[C@@H]1CC[C@@H](C)C[C@@H]1O", "test": "acute oral toxicity OECD", "test system": "Swiss albino mice, serum", "conditions": "oral, 300 mg/kg", "quantity": "lactate dehydrogenase", "result": "70.2 ± 5.82 mg/dL"}
{"SMILES": "COc1ccc2nc3cc(Cl)ccc3c(Nc3cc(CN4CCCC4)c(O)c(CN4CCCC4)c3)c2n1", "test system": "mouse, blood", "conditions": "intraperitoneal, 28 mg/kg", "quantity": "eosinophils", "result": "14.1%"}
{"SMILES": "CC1(C)[C@H](C(=O)OCc2cccc(Oc3ccccc3)c2)[C@@H]1C=C(Cl)Cl", "test": "refers to: CYP2C9", "test system": "human, age 6 months, recombinant human CYP2C9", "conditions": "0.1 µM", "quantity": "enzyme contribution to clearance", "result": "2.32%"}
{"SMILES": "Nc1nc2cc(-c3ccc4ncc(C(=O)N5CCOCC5)n4c3)ccc2o1", "test system": "human, advanced solid tumours", "conditions": "100–300 mg once daily, drug-related", "quantity": "discontinuation due to adverse events", "result": "4%"}
{"SMILES": "COc1ccc(-c2c(-c3ccc(C#N)c(F)c3)nc(N3CCC(N)CC3)n(C)c2=O)cc1F", "test": "refers to: Hyperglycemia", "test system": "human patients", "conditions": "oral, 60 mg, dose expansion", "quantity": "serious adverse event incidence", "result": "0%"}
{"SMILES": "CC(=O)c1c([O-])cc(C)oc1=O.[Na+]", "test system": "Wistar rat, male, serum", "conditions": "oral, 200 mg/kg, no CYP inhibitor", "quantity": "AUC(0-inf)", "result": "3460 ± 352 µg·h/mL"}
{"SMILES": "CC(=O)c1c(C)c2cnc(Nc3ccc(C4CCN(CCS(C)(=O)=O)CC4)cn3)nc2n(C2CCCC2)c1=O", "test system": "HR+/HER2- advanced breast cancer patients", "conditions": "oral, 300 mg", "quantity": "patients with any TRAE", "result": "100%"}
{"SMILES": "C[C@@H]1OC(=O)NN=C1c1ccc(-c2ccc(F)cc2)c(C(F)(F)F)c1", "test": "phase I trial, refers to: non-cardiac chest pain all grades", "test system": "human patients", "conditions": "10 mg loading then 0.5 mg daily", "quantity": "patients with adverse event", "result": "100%"}
{"SMILES": "O=[N+]([O-])c1ccc2c(c1)S(=O)(=O)C=C2", "test system": "male C57BL/6 mice, blood", "conditions": "intraperitoneal, 10 mg/kg, day 8, group average", "quantity": "mean corpuscular haemoglobin concentration", "result": "288 g/L"}
{"SMILES": "COC[C@@H](CC(C)C)NC(=O)c1ccc(C)c(C)c1", "test system": "Hsd:ICR (CD-1) mouse, male, bone marrow", "conditions": "oral, 2000 mg/kg, 48 h", "quantity": "micronucleated PCE per 1000 PCE", "result": 0.4}
{"SMILES": "O=C(Nc1ccccc1)C1CCN(C(=O)Oc2cccnc2)CC1", "test": "Bond-Lader VAS", "test system": "healthy women", "conditions": "oral, 60 mg", "scale": "reference: pre-dose baseline, direction not given", "quantity": "change in Interested-Bored score", "result": -8.2}
{"SMILES": "Brc1ccc(Oc2cc(Br)c(Br)cc2Br)c(Br)c1", "test": "ultrafiltration", "test system": "cow milk whey", "conditions": "20 nM nominal in whole milk", "quantity": "final permeate concentration", "result": "0.09 nM"}
{"SMILES": "CCN1CCN(Cc2ccc(Nc3ncc(F)c(-c4cc(F)c5nc6n(c5c4)[C@H](C)CCC6)n3)nc2)CC1", "test system": "advanced solid tumour patients", "conditions": "dose not given, Phase Ia monotherapy", "quantity": "Hypercalcemia incidence, any grade", "result": "20.8%"}
{"SMILES": "c1csc(CNc2cc[nH]n2)c1", "test": "micronucleus", "test system": "CD-1 mouse Hsd:ICR(CD-1), female, bone marrow", "conditions": "oral, 250 mg/kg/day, 3 days", "quantity": "micronucleated PCE per 1000 PCE", "result": 0.4}
{"SMILES": "C1=Cc2nc1cc1ccc([n-]1)c(-c1ccccc1)c1nc(cc3ccc([n-]3)c2-c2ccccc2)C=C1.CC(=O)[O-].[Mn+3]", "test": "LC-MS/MS", "test system": "Sprague-Dawley rat, plasma", "conditions": "oral gavage, dose not given, 240 min", "quantity": "plasma concentration", "result": "192 ng/mL and 94 ng/mL"}
{"SMILES": "COc1cc2c(Oc3ccc4[nH]c(C)cc4c3F)ccnc2cc1OCC1(N)CC1", "test system": "paediatric recurrent refractory sarcoma", "conditions": "8 mg", "quantity": "grade 1 or 2 TBIL elevation", "result": "0%"}
{"SMILES": "CN1CC[C@@H](c2c(O)cc(O)c3c(=O)cc(-c4ccc(C(F)(F)F)cc4Cl)oc23)[C@@H]1CO", "test": "refers to: Sepsis", "test system": "relapsed B-cell malignancies or AML", "conditions": "oral, 100 mg, grade 3-4, continuous dosing", "quantity": "patients with adverse event", "result": "12.5%"}
{"SMILES": "CC(C)[C@@H]1NC(=O)CNC(=O)[C@H](CC(N)=O)NC(=O)[C@H](CCCNC(=N)N)NC(=O)[C@H](Cc2ccc(O)cc2)NC(=O)[C@H](C(C)C)NC(=O)[C@@H](NC(=O)[C@@H](NC(=O)[C@H](CC(N)=O)NC(=O)[C@H](Cc2c[nH]c3ccccc23)NC(=O)[C@H](C)NC(=O)[C@H](Cc2ccccc2)NC(=O)CN)C(C)C)CSSC[C@@H](C(=O)N[C@@H](Cc2cnc[nH]2)C(=O)N[C@@H](CCCNC(=N)N)C(=O)N[C@@H](CCCNC(=N)N)C(=O)N[C@@H](C)C(=O)N[C@@H](CC(N)=O)C(N)=O)NC(=O)[C@H](C(C)C)NC(=O)[C@H](CCCNC(=N)N)NC1=O", "test system": "ICR mice, serum", "conditions": "intraperitoneal, 10 mg/kg, day 5", "quantity": "albumin", "result": "32.7 ± 1.09 g/L"}
{"SMILES": "CCS(=O)(=O)Nc1ccc(Oc2ccc(F)cc2F)c(-c2cn(C)c(=O)c3[nH]ccc23)c1", "test": "skin laceration leading to discontinuation", "test system": "human, relapsed/refractory AML", "conditions": "oral, dose not given", "quantity": "treatment-emergent adverse events", "result": "0%"}
{"SMILES": "O=S(=O)(Nc1ccccc1)c1ccc(NC(=S)Nc2ccccc2)cc1", "test": "refers to: ALT", "test system": "male mouse, blood", "conditions": "oral, 5 mg/kg daily, 14 days", "quantity": "serum enzyme activity", "result": "53.8 U/L"}
{"SMILES": "O=c1nc(NO)ccn1[C@@H]1O[C@H](CO)[C@@H](O)[C@H]1O", "test system": "rat maternal blood dialysate", "conditions": "25 ng/mL, 6 h, room temperature, low concentration, with: molnupiravir 5 ng/mL", "quantity": "bench-top stability", "result": "99.8 ± 2.44%"}
{"SMILES": "COc1ccc([C@@H](O)c2cc(-c3ncnc4cc(N5CCOCC5)ccc34)c(F)cc2Cl)nn1", "test system": "patients, advanced solid tumours", "conditions": "oral, 300 mg twice daily, treatment-emergent, with: avelumab", "scale": "reference: patients", "quantity": "stomatitis incidence", "result": "4%"}
{"SMILES": "C=CC(=O)N1CC[C@H](n2nc(C#Cc3cc(OC)cc(OC)c3)c3c(N)ncnc32)C1", "test system": "human patients", "conditions": "oral, dose not given, QD regimen, adverse drug reaction, with: sevelamer hydrochloride", "quantity": "ALT increased, any grade", "result": "18.2%"}
{"SMILES": "CO[C@H]1C[C@@H]2CC[C@@H](C)[C@@](O)(O2)C(=O)C(=O)N2CCCC[C@H]2C(=O)O[C@H]([C@H](C)C[C@@H]2CC[C@@H](OC(=O)NCCOCCOCCOCCOCCOCCOCCOCCOCCC(=O)N3CCc4cc(Cn5nc(-c6ccc7oc(N)nc7c6)c6c(N)ncnc65)ccc4C3)[C@H](OC)C2)C[C@@H](O)[C@H](C)/C=C(\\C)[C@@H](O)[C@@H](OC)C(=O)[C@H](C)C[C@H](C)/C=C/C=C/C=C/1C", "test": "phase 1 dose escalation", "test system": "advanced solid tumour patients", "conditions": "intravenous, 12 mg weekly, any grade", "quantity": "deaths due to TRAEs", "result": "0%"}
{"SMILES": "C[C@]1(CO)Cc2ncn(-c3ccc(C#N)c(Cl)c3)c2C(=O)O1", "test system": "human", "conditions": "40 mg multiple doses, fasted", "quantity": "subjects with drug-related hyperhidrosis", "result": "0%"}
{"SMILES": "CC(C)C[C@H](NC(=O)[C@H](CCCCN)NC(=O)OCC1c2ccccc2-c2ccccc21)C(=O)N[C@H](C(=O)N[C@@H](Cc1ccccc1)C(=O)N[C@@H](Cc1ccccc1)C(=O)N[C@@H](CCCCN)C(=O)NCC(=O)N[C@@H](Cc1ccccc1)C(=O)N[C@@H](C)C(=O)N[C@@H](Cc1c[nH]c2ccccc12)C(=O)N[C@@H](CC(N)=O)C(=O)N[C@H](C(=O)N[C@H]1CSSC[C@@H](C(=O)N[C@@H](Cc2c[nH]cn2)C(=O)N[C@@H](CCCNC(=N)N)C(=O)N[C@@H](CCCNC(=N)N)C(=O)N[C@@H](C)C(=O)N[C@@H](CC(N)=O)C(N)=O)NC(=O)[C@H](C(C)C)NC(=O)[C@H](CCCNC(=N)N)NC(=O)[C@H](C(C)C)NC(=O)CNC(=O)[C@H](CC(N)=O)NC(=O)[C@H](CCCNC(=N)N)NC(=O)[C@H](Cc2ccc(O)cc2)NC(=O)[C@H](C(C)C)NC1=O)C(C)C)C(C)C", "test system": "ICR mouse, blood", "conditions": "intramammary, 5 mg/kg, day 5, 3 d dosing", "quantity": "haemoglobin", "result": "125 ± 3.56 g/L"}
{"SMILES": "CCC[C@@](N)(CO)CCc1ccc(OCCCCCC(C)C)cc1", "test system": "dog", "conditions": "oral, 15 mg/kg", "quantity": "AUC(0-inf)", "result": "21.9 µM·h"}
